Experimental data from different studies.
Several values in a cell are separate wells, animals, samples, runs or records. Numbers after ± are the reported error.

Compound | cell line | test | system | setting | scale | measurement | value
CCCC(CCC)NC(=O)c1ccc2c(c1)OCO2 | CHO-WBL | – | – | 1.67 mg/mL, 3 h, with rat liver S9 | – | relative mitotic index | 104%
CC(=O)Nc1cccc(-n2c(=O)n(C3CC3)c(=O)c3c(Nc4ccc(I)cc4F)n(C)c(=O)c(C)c32)c1 | COLO 205 | resazurin | – | 50.00 nM, 72 h, unit not given | relative to: DMSO | viability | 0.0867 and 0.0603
CC(C)=CCc1c(O)ccc(C(=O)[C@@H]2[C@@H](c3c(O)cc(O)c4c(=O)c(CC=C(C)C)c(-c5ccc(O)cc5O)oc34)C=C(C)C[C@H]2c2ccc(O)cc2O)c1O | BEAS-2B | fluorogenic substrate | – | 10 µM, 24 h | relative to: control | CYP1A1 induction | 1.05 fold
CCCC(=O)OCSc1ccccc1C(=O)NCCn1cc(C(=O)NCc2ccccn2)c(=O)c2cc3c(cc21)OCO3 | PHA-P-stimulated PBMC pooled | cytotoxicity, XTT | – | 7 days | – | TC50 | > 100 µM
NS(=O)(=O)c1ccc(NC(=S)N2CCN(C/C=C/c3ccccc3)CC2)cc1 | PH5CH8 hepatocytes | high-content cell count | – | 72 h | – | CC50 | > 10 µM
Nc1nc2c(ncn2COCCO)c(=O)[nH]1 | HEL or HeLa cells | cell viability | – | 3 (unit not given) | – | CC50 | > 250 µM
COc1c(-c2ccccc2)oc2ccccc2c1=O | BEAS-2B | enzyme activity, inducer, fluorogenic substrate imaging | – | 10 µM, 24 h | relative to: control | CYP1A1 induction | 0.75 fold
C=C(C)[C@H](CC=C(C)C)Cc1c(O)cc(OC)c(C(=O)/C=C/c2ccc(O)cc2O)c1O | COLO 205 | cytotoxicity, MTT | – | 48 h | – | IC50 | 29.4 µM
COc1cccc(CN(CCN(CCN(C)C)Cc2ccccc2)Cc2ccccc2)c1 | WI-38 | propidium iodide flow cytometry | – | 10 µM, 21 h | – | apoptotic cells | 0.71%
C=C[C@@H]1C[C@]1(NC(=O)[C@@H]1C[C@@H]2CN1C(=O)[C@H](C(C)(C)C)NC(=O)O[C@@H]1C[C@H]1CCCCCc1nc3ccc(OC)cc3nc1O2)C(=O)NS(=O)(=O)C1CC1 | plated human hepatocytes | – | – | 0.5 µM, 60 min, added: 0.2% HSA | – | unbound fraction in hepatocytes | 0.0173
COC[C@@H](CC(C)C)NC(=O)c1ccc(C)c(C)c1 | primary human lymphocytes | refers to: structural aberrations | – | 110 µg/mL, 20 h, without S9 | – | cells with aberrations | 0%
N#Cc1ccc2cc[nH]c2c1 | uninfected HCT-8 | cytotoxicity, Hoechst nuclei count | – | – | – | EC50 | 1100 µM
O=c1c2cc(O)c(O)cc2oc2cc(O)c([C@@H]3O[C@H](CO)[C@@H](O)[C@H](O)[C@H]3O)c(O)c12 | BEAS-2B | enzyme activity, inducer, fluorogenic substrate imaging | – | 10 µM, 24 h | relative to: control | CYP1A1 induction | 0.78 fold
Cc1cnc(Nc2ccc(OCCN3CCCC3)cc2)nc1Nc1cccc(S(=O)(=O)NC(C)(C)C)c1 | iCell cardiomyocytes hiPSC-derived | impedance | – | concentration not given, 24 h | relative to: vehicle | cell index | 96.7%
COc1cccc2c1C(=O)c1c(O)c3c(c(O)c1C2=O)C[C@@](O)(C(=O)CO)C[C@@H]3O[C@H]1C[C@H](N)[C@H](O)[C@H](C)O1 | THLE-2 transduced with Ad-CYP2D6 | metabolism-induced cytotoxicity | – | 48 h, 3D Matrigel spots | – | IC50 | 4 ± 1 µM
CCCC(=O)OCSc1ccccc1C(=O)NCCn1cc(C(=O)NCc2cccc(C)n2)c(=O)c2cc3c(cc21)OC(F)(F)O3 | PHA-P-stimulated PBMC pooled | cytotoxicity, XTT | – | 7 days | – | TC50 | > 100 µM
COc1cccc(-c2n[nH]c(SCc3ccccn3)n2)c1OC | CHO-WBL | – | – | 200 µg/mL, 3 h, added: rat liver S9 | – | micronuclei per binucleated cell | 0.025
CC(C)n1ncc2c(C(=O)NCC3(C)CNC3)cc(C3CC3)nc21 | Vero C1008 | neutral red uptake | DMEM with 2% FBS | 0.33 µM | relative to: positive control | viability | 100%
Cc1ccc2[nH]ccc2c1 | uninfected HCT-8 | cytotoxicity, Hoechst nuclei count | – | – | – | EC50 | 1200 µM
Cc1cc(O)c2c(c1)C(=O)c1cccc(O)c1C2=O | BEAS-2B | enzyme activity, inducer, fluorogenic substrate imaging | – | 10 µM, 24 h | relative to: control | CYP1A1 induction | 1.59 fold
Fc1ccc(N/N=C/c2ccc(-c3cccc(/C=N/Nc4ccc(F)cc4F)c3)cc2)c(F)c1 | BEAS-2B | – | – | 15.5 µg/mL | – | cytotoxicity | not toxic

Compound | cell line | test | system | setting | scale | measurement | value
COc1cc(-c2oc3cc(O)cc(O)c3c(=O)c2O)ccc1O | BEAS-2B | enzyme activity, inducer, fluorogenic substrate imaging | – | 10 µM, 24 h | relative to: control | CYP1A1 induction | 0.96 fold
Oc1ccc2cc[nH]c2c1 | uninfected HCT-8 | cytotoxicity, Hoechst nuclei count | – | – | – | EC50 | > 8000 µM
CCCS(=O)(=O)Oc1ccc(C=NNC(=O)CSc2nc3c(C)cccc3c(=O)n2-c2ccccc2)cc1OC | BJ1 | MTT | – | 100 µM | – | cytotoxicity | 52.4 ± 3.58%
O=c1c(-c2ccccc2)coc2cc(O)ccc12 | BEAS-2B | enzyme activity, inducer, fluorogenic substrate imaging | – | 10 µM, 24 h | relative to: control | CYP1A1 induction | 0.8 fold
Oc1cccc2[nH]ccc12 | uninfected HCT-8 | cytotoxicity, Hoechst nuclei count | – | – | – | EC50 | > 10000 µM
O=c1ncn2nc(Sc3ccc(F)cc3F)ccc2c1-c1c(Cl)cccc1Cl | iCell cardiomyocytes hiPSC-derived | impedance | – | concentration not given, 24 h | relative to: vehicle | cell index | 103%
Cc1cc(C(=O)NC(C)(C)COc2cccc3c2C(N)=NS(=O)(=O)N3)cc(C)n1 | human peripheral blood lymphocytes | CBPI, preliminary test | – | 600 µg/mL, 24 h | relative to: vehicle control | cytotoxicity | 3%
Cc1c[nH]c2ccccc12 | uninfected HCT-8 | cytotoxicity, Hoechst nuclei count | – | – | – | EC50 | 1630 µM
Cc1c(C)c2c(c(C)c1O)CCC(C)(COc1ccc(CC3SC(=O)NC3=O)cc1)O2 (stereo not drawn) | THLE-2 transduced with Ad-UGT1A4 | cytotoxicity | – | 48 h | – | IC50 | 120 ± 11 µM
COc1ccc(-c2cc(=O)c3c(O)cc(O)c(-c4cc(-c5cc(=O)c6c(O)cc(OC)cc6o5)ccc4OC)c3o2)cc1 | BEAS-2B | fluorogenic substrate | – | 10 µM, 24 h | relative to: control | CYP1A1 induction | 0.58 fold
COc1ccc2[nH]ccc2c1 | uninfected HCT-8 | cytotoxicity, Hoechst nuclei count | – | – | – | EC50 | 7180 µM
Cc1ncc([N+](=O)[O-])n1CCOC(=O)c1ccccc1 | LMH chicken hepatoma | – | – | – | – | CC50 | 269 µM
C[C@H]1O[C@@H](O[C@H]2[C@@H](O)C[C@H](O[C@H]3[C@@H](O)C[C@H](O[C@H]4CC[C@@]5(C)[C@H](CC[C@@H]6[C@@H]5C[C@@H](O)[C@]5(C)[C@@H](C7=CC(=O)OC7)CC[C@]65O)C4)O[C@@H]3C)O[C@@H]2C)C[C@H](O)[C@@H]1O | PH5CH8 hepatocytes | high-content cell count | – | 72 h, oleate lipid loaded | – | CC50 | 0.052 µM
CN1c2c(C(=O)Nc3ccc(NS(C)(=O)=O)cc3)nn(-c3ccc(Cl)cc3)c2-c2ccccc2S1(=O)=O | Huh-9-13 | Nile red staining | – | 100 µM, 24 h | – | neutral lipid content | decreased
Cn1cnc([N+](=O)[O-])c1Sc1ccccc1C(=O)NCCn1ccc(=O)c2cc3c(cc21)OCO3 | PHA-P-stimulated PBMC pooled | cytotoxicity, XTT | – | 7 days | – | TC50 | > 100 µM
CN(C)C/C=C/C(=O)Nc1ccc(C(=O)Nc2cccc(Nc3ncc(Cl)c(-c4c[nH]c5ccccc45)n3)c2)cc1 | PH5CH8 hepatocytes | high-content cell count | – | 72 h | – | CC50 | 0.034 µM
COc1cc2ncnc(Nc3ccc(Oc4ccccc4)c(C)c3C)c2cc1OC.Cl | NCI-H2087 (BRAF L597V) | resazurin | – | 1 µM, 72 h, unit not given, added: trametinib 1 µM | relative to: DMSO | viability | 0.803 and 1.08
Nc1nc(S)nc(O)c1N=Cc1cn(-c2ccccc2)nc1-c1ccccc1 | CCRF-CEM | cytotoxicity, differential nuclear staining | – | 48 h | – | CC50 | 13.4 ± 0.98 µM
COc1ccc(N/N=C/c2ccc(-c3cccc(/C=N/Nc4ccc(OC)cc4)c3)cc2)cc1 | BEAS-2B | – | – | 15.5 µg/mL | – | cytotoxicity | not toxic
O=C(O)[C@H]1O[C@@H](Oc2cc3oc(-c4ccc(O)cc4)cc(=O)c3c(O)c2O)[C@H](O)[C@@H](O)[C@@H]1O | BEAS-2B | enzyme activity, inducer, fluorogenic substrate imaging | – | 10 µM, 24 h | relative to: control | CYP1A1 induction | 1.18 fold
CC(C)(c1ccc(O)cc1)c1ccc(O)cc1 | HepG2 spheroids, dissociated | annexin V-FITC/PI flow cytometry | – | 40 µM, 24 h | – | viable cells | ~80%
